Measured values from different studies.
± marks the error that the study gave.
Cell line: HEK-293T

Compound | test | conditions | quantity | value
CCCCCCCCCCCCSCC(COCC(O)C[N+](C)(CCO)CCO)SCCCCCCCCCCCC (centres unmarked) | cell growth or viability, MTT | 24 h | IC50 | 165 µM
CSc1ccc(NC(=O)c2cnn(-c3ccc([N+](=O)[O-])cc3)c2C(F)(F)F)cc1 | cell viability, MTS | 50 µM, 72 h | inhibition | 13.1 ± 1.08%
Cc1cc(C)nc(SCC(=O)Nc2ncc(Cc3cccc4ccccc34)s2)n1 | cell viability, MTS | 10 µM | inhibition | 18.8 ± 1.6%
Cc1cc(C)nc(SCC(=O)Nc2ncc(Cc3cccc4ccccc34)s2)n1 | cell growth or viability, MTT | 72 h | EC50 | 84.5 to 109 µM
Cc1cc(C)nc(SCC(=O)Nc2ncc(Cc3cccc(OCc4cn(Cc5ccc(C#N)cc5)nn4)c3)s2)n1 | cell viability, MTS | 10 µM | inhibition | 70.9 ± 1.7%
C=CCOCO[C@H](C(=O)NC[C@@H]1C[C@@H](OC)C(C)(C)[C@@H](C[C@@H](COC)OC)O1)[C@@]1(OC)CC(=C)[C@@H](C)[C@@H](C)O1 | cell viability, sulforhodamine B | 48 h, 37 °C, with: H2O2 100 µM | IC50 | 3.49 ± 0.084 µM
CCCCCCCCCCCCNC(=S)NCCCC[C@H](NS(C)(=O)=O)C(=O)N[C@H](C)C(=O)N[C@@H](CCCNC(=N)N)C(N)=O | cell growth or viability, MTT | 72 h | EC50 | 4.88 to 18.3 µM
COc1cc(NC(=O)c2cnn(-c3ccc([N+](=O)[O-])cc3)c2C(F)(F)F)c(OC)cc1Cl | cell viability, MTS | 50 µM, 72 h | inhibition | 20.1 ± 1.65%

For quick reference, copied from above:
Compound | test | conditions | quantity | value
Cc1cc(C)nc(SCC(=O)Nc2ncc(Cc3cccc(OCc4cn(Cc5ccc(C#N)cc5)nn4)c3)s2)n1 | cell viability, MTS | 10 µM | inhibition | 70.9 ± 1.7%
